Assay results pooled from the literature.
Each line is one published result; not all experiments were run side by side. “And” joins repeats or separate records; there may be more than shown. Numbers after ± are the reported error.
spsB: Signal peptidase IB (spsB, Staphylococcus aureus, UniProt Q5HHB9)
FLT3: Receptor-type tyrosine-protein kinase FLT3 (FLT3, Homo sapiens, UniProt P36888)
TRPM8: Transient receptor potential cation channel subfamily M member 8 (TRPM8, Homo sapiens, UniProt Q7Z2W7)
ROCK1: Rho-associated protein kinase 1 (ROCK1, Homo sapiens, UniProt Q13464)

`Nc1ncnc2c1ncn2C1OC(CSCCNCc2cccc(-c3ccccc3)c2)C(O)C1O` (centres unmarked) gave a remaining activity of 62.7% (METTL5, with TRMT112 (Homo sapiens, UniProt Q9NRN9); 10 µM).
The remaining activity of `O=C(Nc1ccc2c(c1)OCCO2)Nc1ccc(Cl)c(C(F)(F)F)c1` is reported as 115% (spsB; peptidase activity, activator, FRET peptide cleavage; Staphylococcus aureus, membranes; 10 µM; baseline: DMSO).
With `C=CC(=O)N1CCC([C@@H]2CCNc3c(C(N)=O)c(-c4ccc(Oc5ccccc5)cc4)nn32)CC1` the remaining activity was 84.9 ± 3.4% (FLT3; kinase activity, inhibitor, HotSpot radiometric; 100 nM, together with: ATP 10 µM).
`CCCC(=O)Oc1ccc2[nH]c(C(=O)c3cc4ccccc4[nH]3)cc2c1` has a remaining activity of 99.7 ± 1.31% (TRPM8; antagonist; HEK293; 5 µM; baseline: control).
The remaining activity of `O=C(Nc1ccc(Cl)c(C(F)(F)F)c1)N1CCc2ccccc2C1` is reported as 148% (spsB; peptidase activity, activator, FRET peptide cleavage; Staphylococcus aureus, membranes; 100 µM; baseline: DMSO).
With `COc1cc(O)c(CC=C(C)C)c(O)c1C(=O)/C=C/c1ccc(O)cc1` the remaining activity was -3.87% (Thyroxine 5-deiodinase (DIO3, Homo sapiens, UniProt P55073, A240R); enzyme activity, inhibitor; 200 µM, screening; baseline: DMSO control).
The remaining activity of `COc1cc(N2CCN(C)CC2)ccc1Nc1nc(N)n(C(=O)NCc2c(Cl)cccc2Cl)n1` is reported as 4.4% (ERN1 (Homo sapiens, UniProt O75460); enzyme activity; 10 µM; baseline: control).
`Nc1nc(Nc2ccc(S(N)(=O)=O)cc2)nn1C(=O)c1c(F)cccc1F` has a remaining activity of 107 ± 5.82% (TRPM8; antagonist; HEK293; 5 µM; baseline: control).
For `COc1cc(N2CCN(C)CC2)ccc1Nc1nc(N)n(C(=S)NCc2c(Cl)cccc2Cl)n1`, the remaining activity was 0.05% (ROCK1; enzyme activity; 10 µM; baseline: control).
The remaining activity of `O=C(Nc1ccc(Cl)c(C(F)(F)F)c1)N1CCC(F)(F)CC1` is reported as 105% (spsB; peptidase activity, activator, FRET peptide cleavage; Staphylococcus aureus, membranes; 10 µM; baseline: DMSO).
With `O=C1NC(=O)/C(=C/c2ccc(-c3ccc(F)cc3O)o2)S1` the remaining activity was 88% (RPS6KA1 (Homo sapiens, UniProt Q15418); enzyme activity; 10 µM).
`C=CC(=O)N1CCC[C@@H](n2nc(-c3ccc(Oc4ccccc4)cc3)c3c(N)ncnc32)C1` has a remaining activity of 21.8% (Insulin-like growth factor-binding protein 5 (Homo sapiens, UniProt P24593); 10 µM).
The remaining activity of `O=C(NC(NC(=S)Nc1ccc(F)c([N+](=O)[O-])c1)C(Cl)(Cl)Cl)C(c1ccccc1)c1ccccc1` (centres unmarked) is reported as 92.1 ± 7.43% (TRPM8; antagonist; HEK293; 5 µM; baseline: control).
For `O=C(O)c1ccc(Nc2ncc3c(n2)-c2ccc(Cl)cc2C(c2c(F)cccc2F)=NC3)cc1`, the remaining activity was 109% (PKCδ(h); kinase activity; 1 µM).
`NC/C(=C\F)COc1cccc(Cn2c(=S)[nH]c(=O)c3[nH]cnc32)c1` has a remaining activity of 84.5% and 87.8% (Peroxidasin homolog (PXDN, Homo sapiens, UniProt Q92626); enzyme activity, inhibitor, Amplex UltraRed; 2.5 µM; baseline: control).
For `O=c1oc(Cl)c(Cl)c2ccccc12`, the remaining activity was 37% (Rhomboid protease AarA (Providencia stuartii, UniProt P46116); substrate cleavage, gel-based; 100 µM; baseline: DMSO).
`COc1cc(-c2cncc3c2CN(C)Cc2cc(N4CCNCC4)ccc2-3)cc(OC)c1OC` gave a remaining activity of 54% (ACVR2A (Homo sapiens, UniProt P27037); kinase activity; 1 µM, human enzyme, together with: ATP 10 µM; baseline: DMSO control).
With `CCN(CCO)CCCC(C)Nc1ccnc2cc(Cl)ccc12` (centres unmarked) the remaining activity was 95% (Potassium voltage-gated channel subfamily KQT member 1, with KCNE1 (KCNQ1, Homo sapiens, UniProt P51787); IKs current; HEK293; 100 µM, step to +20 mV).
`O=C(Nc1ccc(N2CCOCC2)cc1)Nc1ccc(Cl)c(C(F)(F)F)c1` gave a remaining activity of 195% (spsB; peptidase activity, activator, FRET peptide cleavage; Staphylococcus aureus, membranes; 100 µM; baseline: DMSO).
With `CC(C)[C@H](CO)Nc1nc(Nc2cccc(Cl)c2)c2ncn(C(C)C)c2n1` the remaining activity was 98.9 ± 9.57% (TRPM8; antagonist; HEK293; 5 µM; baseline: control).
With `Cc1cccc(C)c1NC(=O)Nc1ccc(Cl)c(C(F)(F)F)c1` the remaining activity was 110% (spsB; peptidase activity, activator, FRET peptide cleavage; Staphylococcus aureus, membranes; 100 µM; baseline: DMSO).
With `O=C(NC1CCC1)c1ccc2nc(-c3cccc(NS(=O)(=O)NCCN4CCCCC4)c3)cn2c1` the remaining activity was 80% (FLT3 (Homo sapiens, UniProt P36888, D835Y); enzyme activity; 10 µM).
The remaining activity of `COc1cc(F)ccc1-c1ncnc(Nc2cccc(C[S@](C)(=N)=O)c2)n1` is reported as 112% (PAK2 (Homo sapiens, UniProt Q13177); kinase activity; 10 µM, together with: 10 µM ATP).
`COc1cc2ncnc(Nc3ccc(NC(=O)c4ccccc4)cc3)c2cc1OC` has a remaining activity of 106 ± 7.52% (TRPM8; antagonist; HEK293; 5 µM; baseline: control).
`COc1ccc(F)cc1C(=O)NCc1ccc(-c2nn([C@@H](C)C(F)(F)F)c(N)c2C(N)=O)cc1` has a remaining activity of 64.4 ± 2.8% (TNIK (Homo sapiens, UniProt Q9UKE5); kinase activity, inhibitor, HotSpot radiometric; 1000 nM, together with: ATP at Km).
`CNC(=O)c1ccc(NC(=O)Nc2ccc(Cl)c(C(F)(F)F)c2)cc1` has a remaining activity of 170% (spsB; peptidase activity, activator, FRET peptide cleavage; Staphylococcus aureus, membranes; 50 µM; baseline: DMSO).
`Cc1cc(Nc2cc(N3CCN(C)CC3)nc(Sc3ccc(NC(=O)C4CC4)cc3)n2)[nH]n1` gave a remaining activity of 105% (PLK3 (Homo sapiens, UniProt Q9H4B4); kinase activity, KinaseProfiler; 0.03 µM, species human; baseline: control).
For `CC#CC(=O)N1CCC[C@H]1c1nc(-c2ccc(C(=O)Nc3ccccn3)cc2)c2c(N)nccn12`, the remaining activity was 100.3 ± 0.4% (FLT3; kinase activity, inhibitor, HotSpot radiometric; 100 nM, together with: ATP 10 µM).
`CC(C)(C)n1nc(Cc2cccc3ccccc23)c2c(N)ncnc21` has a remaining activity of 101 ± 8.05% (TRPM8; antagonist; HEK293; 5 µM; baseline: control).
For `COc1cc(Nc2ncc3c(n2)-c2ccc(Cl)cc2C(c2c(F)cccc2OC)=NC3)ccc1C(=O)O`, the remaining activity was 102% (MAP2K2; kinase activity; 1 µM).
The remaining activity of `CNc1ncc2c(/C=C/C(=O)N3CCC(OC)CC3)nn(Cc3cccc(C(F)(F)F)c3)c2n1` is reported as 95% (ROCK1; kinase activity, inhibitor; 1 µM; baseline: untreated control).
For `O=C1C(Cl)=C(N2C(=O)CCC2=O)C(=O)c2ccccc21`, the remaining activity was 103 ± 11.5% (TRPM8; antagonist; HEK293; 5 µM; baseline: control).
For `O=C(Cc1ccc(Cl)c(C(F)(F)F)c1)Nc1ccc2c(c1)OC(F)(F)O2`, the remaining activity was 143% (spsB; peptidase activity, activator, FRET peptide cleavage; Staphylococcus aureus, membranes; 50 µM; baseline: DMSO).
`CC(C)N(CCC(=O)c1ccc2ccccc2c1)Cc1ccccc1` gave a remaining activity of 101 ± 6.68% (TRPM8; antagonist; HEK293; 5 µM; baseline: control).
`O=C(Nc1cccc(C(F)(F)F)c1)Nc1ccc2c(c1)OC(F)(F)O2` has a remaining activity of 239% (spsB; peptidase activity, activator, FRET peptide cleavage; Staphylococcus aureus, membranes; 50 µM; baseline: DMSO).
